{"data": "Measurements pooled from the literature", "cell line": "Caco-2", "note": "Protocols differ between the studies behind these lines. Numbers after ± are the reported error."}
{"SMILES": "CC(C)C[C@@H]1NC(=O)CN(C)C(=O)[C@H](Cc2ccccc2)NCC2=CC=C(CNC1=O)O2", "endpoint": "Papp", "result": "17.7 ×10⁻⁶ cm/s"}
{"SMILES": "COCCc1ccc(OCC(O)CNC(C)C)cc1 (centres unmarked)", "conditions": "apical to basolateral", "endpoint": "apparent permeability", "result": "33.3 ×10⁻⁶ cm/s"}
{"SMILES": "COc1nc(NCc2cn(-c3ccc(C(=O)Nc4ccc(Br)cc4)cc3)nn2)nc(OC)n1", "test": "MTT", "scale": "relative to: normal rat colonocytes over Caco-2", "endpoint": "selectivity ratio", "result": 0.15}
{"SMILES": "CCn1c(C(=O)N(C2CC2)C2CC2)cc2c3c(ncn3C)c(Nc3cc(C)n(C)n3)nc21", "endpoint": "Papp", "result": "50 ×10⁻⁶ cm/s"}
{"SMILES": "CC(C)NCC(O)COc1cccc2ccccc12 (centres unmarked)", "conditions": "pH 7.4", "endpoint": "Papp", "result": "30.7 ± 0.4 ×10⁻⁶ cm/s"}
{"SMILES": "CN(C)CC(=O)OCc1cc2[nH]c(=S)n(Cc3cccnc3)c(=O)c2cc1Cl", "conditions": "10 µM, 90 min, pH 7.4, 0.1% BSA receiver side", "endpoint": "Papp (B to A)", "result": "2.2 ×10⁻⁶ cm/s"}
{"SMILES": "Cc1cc(Nc2cc3ncccc3c(N[C@@H]3C[C@H]4CC[C@@H](C3)N4CCC#N)n2)n[nH]1", "conditions": "5 µM, 120 min", "endpoint": "Papp A-B", "result": "1.17 ×10⁻⁶ cm/s"}
{"SMILES": "CCCCC(CC)COC(=O)c1ccc(O)cc1 (centres unmarked)", "conditions": "5 µM, 60 min, A-B direction", "endpoint": "hydrolysed compound", "result": "8.9 ± 1.5%"}
{"SMILES": "COc1nc(NCc2cn(-c3ccc(C(=O)Nc4ccc(F)cc4)cc3)nn2)nc(OC)n1", "test": "MTT", "scale": "relative to: normal rat colonocytes over Caco-2", "endpoint": "selectivity ratio", "result": 0.1}
{"SMILES": "C#Cc1c(F)ccc2cc(O)cc(-c3ncc4c(N5CC6CCC(C5)N6)nc(OC[C@@]56CCCN5C[C@H](F)C6)nc4c3F)c12", "conditions": "no inhibitor, P-gp (verapamil) set", "endpoint": "Papp (A to B)", "result": "< 0.479 ×10⁻⁶ cm/s"}
{"SMILES": "CCOc1nc(-c2cccc(O)c2)cc(-c2cc3cc(Cl)ccc3nc2N2CCOCC2)c1C#N", "test": "MTT", "conditions": "72 h, 10% FBS", "scale": "relative to: WI-38 EC50 over Caco-2 IC50", "endpoint": "selectivity ratio", "result": 0.248}
{"SMILES": "C1CCc2c(c(N3CCOCC3)nc3sc4c(N5CCNCC5)nnnc4c23)C1", "conditions": "10 µM, 120 min, pH 7.4, without inhibitor", "endpoint": "Papp A-B", "result": "5.88 ×10⁻⁶ cm/s"}
{"SMILES": "NS(=O)(=O)c1nnc(NC(=O)CCC2CC3CCC2C3)s1 (centres unmarked)", "endpoint": "Papp A to B", "result": "8.7 ×10⁻⁶ cm/s"}
{"SMILES": "O=C(O)C=Cc1ccc(O)cc1", "test": "Transwell mass balance", "conditions": "1 mM, time not given, apical to basolateral", "endpoint": "recovery", "result": "89%"}
{"SMILES": "COc1nc(NCc2cn(-c3ccc(C(=O)Nc4ccc([N+](=O)[O-])cc4)cc3)nn2)nc(OC)n1", "test": "MTT", "scale": "relative to: normal rat colonocytes over Caco-2", "endpoint": "selectivity ratio", "result": 0.08}
{"SMILES": "CCOC(=O)c1ccc(O)cc1", "conditions": "5 µM, 60 min, A-B direction", "endpoint": "hydrolysed compound", "result": "64.6 ± 6.5%"}
{"SMILES": "NS(=O)(=O)c1nnc(NC(=O)C2CCCC3(CCCCC3)C2)s1 (centres unmarked)", "endpoint": "Papp A to B", "result": "5.5 ×10⁻⁶ cm/s"}
{"SMILES": "CC(=O)CC(c1ccccc1)c1c(O)c2ccccc2oc1=O (centres unmarked)", "conditions": "10 µM, 2 h", "endpoint": "recovery B-A", "result": "84%"}
{"SMILES": "CCCCC(CC)CNC(=N)NC(=N)NCCCCCCNC(=N)NC(=N)NCC(CC)CCCC (centres unmarked)", "conditions": "5 µM, 2 h, apical to basolateral", "endpoint": "recovery", "result": "< 24.4%"}
{"SMILES": "CC[C@H](C)C(=O)N1CCC(NC(=O)Nc2ccc(OC(F)(F)F)c(F)c2)CC1", "test": "Caco-2 permeability", "conditions": "10 µM, 60 min, pH 7.4 apical, 7.4 basolateral, replicate 2, with: verapamil", "scale": "apical to basolateral", "endpoint": "percent recovery", "result": "40%"}
{"SMILES": "CO[C@@H](C[C@H]1C(C)=CC[C@@H]2[C@]3(C)C[C@H](O[C@@H]4O[C@@H](C)[C@H](OC(=O)c5cccc(O)c5)[C@@H](O[C@@H]5O[C@H](CO)[C@@H](O)[C@H](O)[C@H]5NC(C)=O)[C@H]4O)[C@@H](O)C(C)(C)[C@H]3CC[C@]21C)[C@H](N)C(=O)O.O=C(O)C(F)(F)F", "test": "transwell permeability", "conditions": "5 µM, 1 h", "endpoint": "recovery", "result": "87%"}
{"SMILES": "Cc1ccc(CCC(=O)Nc2nnc(S(N)(=O)=O)s2)cc1", "endpoint": "Papp A to B", "result": "8.3 ×10⁻⁶ cm/s"}
{"SMILES": "CC(C)NCC(O)COc1cccc2ccccc12 (centres unmarked)", "test": "transwell permeability", "conditions": "5 µM, 1 h", "endpoint": "recovery", "result": "90%"}
{"SMILES": "O=C(Nc1ccc(CN2CCOCC2)c(C(F)(F)F)c1)c1ccc(C#Cc2cccc3cnccc23)cn1", "conditions": "5 µM, 120 min, A-to-B, apical dosing", "endpoint": "recovery", "result": "80.6%"}
{"SMILES": "C[C@H]1O[C@@H](O[C@H]2[C@@H](O)C[C@H](O[C@H]3[C@@H](O)C[C@H](O[C@H]4CC[C@@]5(C)[C@H](CC[C@@H]6[C@@H]5C[C@@H](O)[C@]5(C)[C@@H](C7=CC(=O)OC7)CC[C@]65O)C4)O[C@@H]3C)O[C@@H]2C)C[C@H](O)[C@@H]1O", "conditions": "5 µM, 2 h, basolateral to apical", "endpoint": "recovery", "result": "83.5%"}
{"SMILES": "O=c1c2cc(Cl)ccc2[nH]c(=S)n1Cc1cccnc1", "conditions": "10 µM, 90 min, pH 7.4, 0.1% BSA receiver side", "endpoint": "Papp (B to A)", "result": "14.4 ×10⁻⁶ cm/s"}
{"SMILES": "O=C(Nc1c2c(cc3c1CCC3)CCC2)NS(=O)(=O)/C=C/c1nccs1", "conditions": "2 µM, 120 min, pH 7.4", "endpoint": "Papp(A-B)", "result": "9.5 ×10⁻⁶ cm/s"}
{"SMILES": "O=C(OCc1ccccc1)c1ccc(O)cc1", "conditions": "5 µM, 60 min, A-B direction", "endpoint": "hydrolysed compound", "result": "20.9 ± 2.6%"}
{"SMILES": "CCCOc1nc(-c2cccc(O)c2)cc(-c2cc3cc(Cl)ccc3nc2N2CCOCC2)c1C#N", "test": "MTT", "conditions": "72 h, 10% FBS", "scale": "relative to: WI-38 EC50 over Caco-2 IC50", "endpoint": "selectivity ratio", "result": 0.172}
{"SMILES": "C=CC(=O)Nc1cc(Nc2nccc(-c3cn(C)c4ccccc34)n2)c(OCC(F)(F)F)nc1N(C)CCN(C)C", "conditions": "45 µM", "endpoint": "Papp A to B", "result": "0.53 ×10⁻⁶ cm/s"}
{"SMILES": "COc1nc(NCc2cn(-c3ccc(NC(=O)c4ccc(Br)cc4)cc3)nn2)nc(OC)n1", "test": "MTT", "scale": "relative to: normal rat colonocytes over Caco-2", "endpoint": "selectivity ratio", "result": 0.02}
{"SMILES": "CC(C)NCC(O)COc1cccc2ccccc12 (centres unmarked)", "conditions": "2 µM, 120 min, pH 7.4", "endpoint": "mass balance", "result": "83.8%"}
{"SMILES": "CC(C)C(=O)OCc1cc2[nH]c(=S)n(Cc3cccnc3)c(=O)c2cc1Cl", "conditions": "10 µM, 90 min, pH 7.4, 0.1% BSA receiver side", "endpoint": "Papp (B to A)", "result": "0.7 ×10⁻⁶ cm/s"}
{"SMILES": "CS(=N)(=O)c1ccc(C(F)(F)F)cc1 (centres unmarked)", "endpoint": "Papp(A-B)", "result": "88 ×10⁻⁶ cm/s"}
{"SMILES": "Cc1cc(C)c(CNC(=O)c2cc(Cl)c3c(c2C)O[C@@](C)([C@H]2CC[C@H](N(C)C)CC2)O3)c(=O)[nH]1", "conditions": "20 µM", "endpoint": "efflux ratio", "result": 48}
{"SMILES": "CCCCOC(=O)c1ccc(O)cc1", "conditions": "5 µM, 60 min, A-B direction", "endpoint": "hydrolysed compound", "result": "52.1 ± 5.6%"}
{"SMILES": "COc1ccc(C(=O)Nc2ccc(-n3cc(CNc4nc(OC)nc(OC)n4)nn3)cc2)cc1", "test": "MTT", "scale": "relative to: normal rat colonocytes over Caco-2", "endpoint": "selectivity ratio", "result": 0.01}
{"SMILES": "Cc1nsc(-c2nnc3n2CCN(C(=O)c2ccc(F)cc2)[C@@H]3C)n1", "endpoint": "passive permeability", "result": "102 ×10⁻⁶ cm/s"}
{"note": "Repeated from above:"}
{"SMILES": "COc1nc(NCc2cn(-c3ccc(C(=O)Nc4ccc(F)cc4)cc3)nn2)nc(OC)n1", "test": "MTT", "scale": "relative to: normal rat colonocytes over Caco-2", "endpoint": "selectivity ratio", "result": 0.1}
{"SMILES": "C#Cc1c(F)ccc2cc(O)cc(-c3ncc4c(N5CC6CCC(C5)N6)nc(OC[C@@]56CCCN5C[C@H](F)C6)nc4c3F)c12", "conditions": "no inhibitor, P-gp (verapamil) set", "endpoint": "Papp (A to B)", "result": "< 0.479 ×10⁻⁶ cm/s"}
{"SMILES": "CCOc1nc(-c2cccc(O)c2)cc(-c2cc3cc(Cl)ccc3nc2N2CCOCC2)c1C#N", "test": "MTT", "conditions": "72 h, 10% FBS", "scale": "relative to: WI-38 EC50 over Caco-2 IC50", "endpoint": "selectivity ratio", "result": 0.248}
{"SMILES": "C1CCc2c(c(N3CCOCC3)nc3sc4c(N5CCNCC5)nnnc4c23)C1", "conditions": "10 µM, 120 min, pH 7.4, without inhibitor", "endpoint": "Papp A-B", "result": "5.88 ×10⁻⁶ cm/s"}
